Measurements of several laboratories.
Compare with care: the assays were run in different laboratories. ≈ marks a conversion by molar mass, not a printed value.
4'-phosphopantetheinyl transferase PptT: 4'-phosphopantetheinyl transferase PptT (Mycobacterium tuberculosis, UniProt O33336)
UniProt O33336, sequence (whole entry, looked up): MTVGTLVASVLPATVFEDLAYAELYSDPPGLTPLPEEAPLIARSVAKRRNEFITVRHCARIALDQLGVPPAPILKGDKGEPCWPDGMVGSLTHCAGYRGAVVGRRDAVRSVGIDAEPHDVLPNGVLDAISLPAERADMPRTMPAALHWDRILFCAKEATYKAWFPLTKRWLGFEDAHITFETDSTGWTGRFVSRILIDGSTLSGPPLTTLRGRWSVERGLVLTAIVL
UniProt Q00536, sequence (whole entry, looked up): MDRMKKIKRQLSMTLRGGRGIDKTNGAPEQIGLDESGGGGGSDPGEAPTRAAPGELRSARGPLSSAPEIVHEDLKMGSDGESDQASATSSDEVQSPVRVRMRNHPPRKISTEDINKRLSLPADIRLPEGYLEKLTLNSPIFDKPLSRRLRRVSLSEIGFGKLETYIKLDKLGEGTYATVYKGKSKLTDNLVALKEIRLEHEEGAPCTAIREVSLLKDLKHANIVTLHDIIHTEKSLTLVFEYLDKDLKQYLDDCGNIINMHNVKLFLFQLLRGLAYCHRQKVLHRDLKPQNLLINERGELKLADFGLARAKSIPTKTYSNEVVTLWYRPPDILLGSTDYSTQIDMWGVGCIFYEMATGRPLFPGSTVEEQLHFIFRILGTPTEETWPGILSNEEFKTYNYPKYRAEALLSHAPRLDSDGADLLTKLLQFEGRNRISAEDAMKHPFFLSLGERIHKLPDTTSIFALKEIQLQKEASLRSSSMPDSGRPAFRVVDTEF
UniProt Q6P3R8, sequence (whole entry, looked up): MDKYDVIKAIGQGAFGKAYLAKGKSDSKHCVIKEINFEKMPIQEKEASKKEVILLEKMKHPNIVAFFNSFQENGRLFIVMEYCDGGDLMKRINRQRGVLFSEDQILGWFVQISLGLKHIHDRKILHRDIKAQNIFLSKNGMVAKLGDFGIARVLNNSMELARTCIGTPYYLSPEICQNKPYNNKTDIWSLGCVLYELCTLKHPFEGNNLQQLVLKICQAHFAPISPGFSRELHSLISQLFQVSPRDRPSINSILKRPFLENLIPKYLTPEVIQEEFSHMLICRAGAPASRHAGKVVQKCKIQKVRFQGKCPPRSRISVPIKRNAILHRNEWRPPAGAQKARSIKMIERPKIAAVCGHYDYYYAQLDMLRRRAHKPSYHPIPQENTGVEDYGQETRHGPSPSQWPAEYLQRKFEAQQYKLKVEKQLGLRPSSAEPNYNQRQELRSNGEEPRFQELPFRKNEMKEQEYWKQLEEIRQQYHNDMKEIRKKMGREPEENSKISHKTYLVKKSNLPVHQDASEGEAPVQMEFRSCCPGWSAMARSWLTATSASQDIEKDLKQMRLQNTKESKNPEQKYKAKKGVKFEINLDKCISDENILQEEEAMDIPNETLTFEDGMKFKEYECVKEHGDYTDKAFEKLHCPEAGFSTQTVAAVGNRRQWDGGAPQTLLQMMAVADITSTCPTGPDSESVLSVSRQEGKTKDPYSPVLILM
UniProt Q8IVW4, sequence (whole entry, looked up): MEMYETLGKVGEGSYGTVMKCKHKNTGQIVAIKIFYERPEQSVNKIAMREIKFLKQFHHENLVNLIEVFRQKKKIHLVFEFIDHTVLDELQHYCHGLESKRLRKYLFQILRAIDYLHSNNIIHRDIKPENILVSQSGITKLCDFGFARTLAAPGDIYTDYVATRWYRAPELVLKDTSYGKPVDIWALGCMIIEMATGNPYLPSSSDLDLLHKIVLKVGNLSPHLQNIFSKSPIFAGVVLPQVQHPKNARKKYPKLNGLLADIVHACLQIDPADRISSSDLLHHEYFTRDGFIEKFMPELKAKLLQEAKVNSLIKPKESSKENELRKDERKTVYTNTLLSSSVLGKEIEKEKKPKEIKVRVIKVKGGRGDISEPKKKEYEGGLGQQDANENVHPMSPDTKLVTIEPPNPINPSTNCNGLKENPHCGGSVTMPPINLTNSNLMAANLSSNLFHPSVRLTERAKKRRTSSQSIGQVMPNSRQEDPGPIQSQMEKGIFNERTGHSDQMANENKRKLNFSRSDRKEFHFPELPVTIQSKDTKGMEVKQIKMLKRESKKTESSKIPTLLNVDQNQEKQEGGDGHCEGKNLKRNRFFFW
UniProt Q9H2X6, sequence (whole entry, looked up): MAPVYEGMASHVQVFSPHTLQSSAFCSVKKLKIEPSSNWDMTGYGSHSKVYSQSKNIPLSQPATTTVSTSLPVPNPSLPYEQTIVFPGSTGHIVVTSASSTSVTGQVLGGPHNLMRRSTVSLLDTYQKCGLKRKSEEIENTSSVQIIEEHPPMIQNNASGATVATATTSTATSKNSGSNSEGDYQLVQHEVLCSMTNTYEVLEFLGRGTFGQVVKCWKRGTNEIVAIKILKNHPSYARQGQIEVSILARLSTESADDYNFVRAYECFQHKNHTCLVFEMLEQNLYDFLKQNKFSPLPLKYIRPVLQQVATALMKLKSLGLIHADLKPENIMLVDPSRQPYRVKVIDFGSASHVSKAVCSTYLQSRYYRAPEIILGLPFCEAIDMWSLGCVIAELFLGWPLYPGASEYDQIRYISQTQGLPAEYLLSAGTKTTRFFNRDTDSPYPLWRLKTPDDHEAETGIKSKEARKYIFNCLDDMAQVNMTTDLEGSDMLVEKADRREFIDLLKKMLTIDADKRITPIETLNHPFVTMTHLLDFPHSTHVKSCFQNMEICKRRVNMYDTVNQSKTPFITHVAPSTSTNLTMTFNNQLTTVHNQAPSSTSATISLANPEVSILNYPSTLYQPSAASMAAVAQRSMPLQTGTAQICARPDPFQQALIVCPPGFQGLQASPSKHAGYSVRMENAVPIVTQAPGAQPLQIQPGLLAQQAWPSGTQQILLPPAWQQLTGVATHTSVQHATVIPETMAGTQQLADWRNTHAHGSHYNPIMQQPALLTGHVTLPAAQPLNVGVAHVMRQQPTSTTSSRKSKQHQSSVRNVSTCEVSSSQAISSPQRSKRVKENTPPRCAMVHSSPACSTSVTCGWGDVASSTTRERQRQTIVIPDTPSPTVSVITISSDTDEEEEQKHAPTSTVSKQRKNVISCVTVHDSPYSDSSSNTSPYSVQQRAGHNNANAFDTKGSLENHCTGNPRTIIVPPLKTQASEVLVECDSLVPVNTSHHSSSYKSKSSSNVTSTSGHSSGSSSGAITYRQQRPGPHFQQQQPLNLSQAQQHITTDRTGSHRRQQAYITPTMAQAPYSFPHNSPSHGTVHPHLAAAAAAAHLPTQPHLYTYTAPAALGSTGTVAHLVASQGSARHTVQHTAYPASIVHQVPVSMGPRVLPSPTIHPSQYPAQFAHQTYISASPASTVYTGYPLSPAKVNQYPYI

`COC(=O)c1cc(-c2cccc(NC(=S)Nc3ccccc3)c2)on1` has an MIC of > 64 µg/mL (Acinetobacter baumannii; microbial growth, broth dilution; BAA1605).
`COc1ncccc1-c1cnn2ccc(N3CCN(C(=O)OC(C)C)CC3)nc12` gave a remaining binding of 88% (NEK5 (Homo sapiens, UniProt Q6P3R8); binding, competition with immobilised ligand; 1 µM).
With `O=C(NNc1cc(F)ccc1F)c1nnc(CC23CC4CC(CC(C4)C2)C3)o1` the EC50 was 6.83 µg/mL (≈ 17.6 µM) (Fusarium oxysporum; microbial growth).
The MIC of `Oc1c(Cl)cc(Cl)cc1-c1[nH]c(Cl)c(Cl)c1Cl` is reported as 4 µM (Acinetobacter baumannii; microbial growth; ATCC19606).
`NC(=O)c1ccc(Cn2c(=S)[nH]c3ccc(Cl)cc3c2=O)cn1` gave an IC50 of 160 nM (4'-phosphopantetheinyl transferase PptT; enzyme activity, inhibitor, FP).
The IC90 of `N=C(N)c1ccc(OCCCCCOc2ccc(C(=N)N)cc2)cc1` is reported as 7 µg/mL (≈ 20.6 µM) (Leishmania donovani; parasite growth; THP-1; intracellular, amastigote).
For `CC(C)[C@@H]1NC(=O)[C@@H](Cc2ccccc2)NC(=O)[C@H](CCCNC(=N)N)NC(=O)[C@@H]([C@H](C)O)NC(=O)[C@H](CC(N)=O)NC(=O)[C@@H](C(C)C)NC1=O`, the IC90 was > 16 µg/mL (Balamuthia mandrillaris; parasite growth, ATP luminescence).
The MFC of `CC(=O)N1CCN(c2ccc(OCC3COC(Cn4ccnc4)(c4ccc(Cl)cc4Cl)O3)cc2)CC1` (stereo not drawn) is reported as > 64 µM (Candida albicans; microbial killing, broth dilution; SP3902; 48 h).
The remaining binding of `Nc1ncc(-c2nc(N3CCOCC3)nc(N3CCOCC3)n2)c(C(F)F)n1` is reported as 74% (CDKL3 (Homo sapiens, UniProt Q8IVW4); binding, competition with immobilised ligand; 10 µM).
`N=c1c2c(-c3ccccc3)c(-c3ccccc3)n(Cc3ccccc3)c2ncn1[C@H]1CC[C@H](O)CC1` has a Cmax of 414 ng/mL (male cynomolgus monkey, plasma; oral, 1 mg/kg, single dose).
For `O=C(NNc1ccc(F)c(F)c1)c1nnc(C23CC4CC(CC(C4)C2)C3)o1`, the inhibition was 100% (Sclerotinia sclerotiorum; microbial growth; 50 µg/mL).
`Cc1nn(C)cc1-c1nc2c(N3CCN(Cc4ccc(Cl)cc4)CC3)c(Cl)cnc2[nH]1` gave a remaining binding of 75% (CDK16 (Homo sapiens, UniProt Q00536); binding, competition with immobilised ligand; 1 µM).
`C[N+]1=C2C=C(NCCc3ccc(O)cc3)C(=O)c3[nH]cc(c32)CC1` has an IC50 of 3.4 nM (Babesia divergens; parasite growth, SYBR Green; 60 h, blood stage).
`C#Cc1ccc(C=NNC(=O)c2ccc(COC(C)C)cc2)c(O)c1` has an MIC80 of 8 µg/mL (≈ 23.8 µM) (Aspergillus fumigatus; microbial growth; 48 h, pH 6.5).
For `COC(=O)OCc1cc2[nH]c(=S)n(Cc3cccnc3)c(=O)c2cc1Cl`, the IC50 was 16500 nM (4'-phosphopantetheinyl transferase PptT; enzyme activity, inhibitor, FP).
The MIC of `COC(=O)c1cc(-c2cccc(NC(=O)Nc3ccc(F)cc3F)c2)on1` is reported as > 64 µg/mL (Acinetobacter baumannii; microbial growth, broth dilution; BAA1605).
For `Cc1ccc(NNC(=O)c2nnc(CC34CC5CC(CC(C5)C3)C4)o2)cc1`, the inhibition was 73% (Sclerotinia sclerotiorum; microbial growth; 50 µg/mL).
`CC(C)(C)C(O)(CCc1ccc(Cl)cc1)Cn1cncn1` (stereo not drawn) gave an inhibition of 100% (Sclerotinia sclerotiorum; microbial growth; 200 µg/mL).
`Nc1ncnc2c([C@@H]3N[C@H](CO)[C@@H](O)[C@H]3O)c[nH]c12` has an inhibition of 2.5% (human respiratory syncytial virus; viral replication, inhibitor; MA104; 0.3 µM).
With `CC(C)[C@H]1NC(=O)[C@H](Cc2ccccc2)NC(=O)[C@@H](Cc2c[nH]c3ccccc23)NC(=O)[C@H](CCCNC(=N)N)NC(=O)[C@@H](CCCN)NC(=O)[C@H](CC(N)=O)NC1=O` the IC50 was > 16 µg/mL (Balamuthia mandrillaris; parasite growth, ATP luminescence).
`COC(=O)c1cc(-c2cccc(NC(=O)Nc3ccccc3F)c2)on1` gave an MIC of > 64 µg/mL (Mycobacteroides abscessus; microbial growth, broth dilution; ATCC19977; 48 h).
`C#Cc1cccc(C=NNC(=O)c2ccc(Br)c(Br)c2)c1O` gave an MIC80 of 1 µg/mL (≈ 2.37 µM) (Aspergillus fumigatus; microbial growth; 48 h, pH 6.5).
For `COC(=O)c1cc(-c2cccc(NC(=O)Nc3ccc(Cl)c(Cl)c3)c2)on1`, the MIC was > 64 µg/mL (Acinetobacter baumannii; microbial growth, broth dilution; BAA1605).
`O=C(NNc1ccc(F)c(F)c1)c1nnc(CC23CC4CC(CC(C4)C2)C3)o1` has an inhibition of 100% (Fusarium oxysporum; microbial growth; 50 µg/mL).
With `C#Cc1ccc(C=NNC(=O)c2ccc(Br)cc2)c(O)c1` the MIC80 was > 16 µg/mL (Aspergillus fumigatus; microbial growth; 48 h, pH 6.5).
The remaining binding of `[2H]c1c([2H])c([C@]2([2H])CCCN2C(=O)C(C)(C)Oc2ccc3cn[nH]c3c2)c([2H])c([2H])c1C([2H])([2H])[2H]` is reported as 87% (HIPK2 (Homo sapiens, UniProt Q9H2X6); binding, competition with immobilised ligand; 1 µM).
`O=C(NCCc1ncc(C(F)(F)F)cc1Cl)c1ccccc1C(F)(F)F` gave an inhibition of 11.5% (Fusarium oxysporum; microbial growth; 50 µg/mL).
With `C#Cc1ccc(C(=O)NN=Cc2cc(C#C)ccc2O)cc1` the MIC80 was > 32 µg/mL (Aspergillus fumigatus; microbial growth; 48 h, pH 6.5).
The IC50 of `C[C@@H](O)[C@@H]1NC(=O)[C@H](Cc2ccccc2)NC(=O)[C@@H](Cc2ccccc2)NC(=O)[C@H]([C@@H](C)O)NC(=O)[C@@H](CCCN)NC(=O)[C@H](CCCNC(=N)N)NC(=O)[C@@H](CCCN)NC1=O` is reported as > 16 µg/mL (Balamuthia mandrillaris; parasite growth, ATP luminescence).
`O=C(NNc1ccc(Cl)c(Cl)c1)c1nnc(C23CC4CC(CC(C4)C2)C3)o1` gave an inhibition of 70.9% (Fusarium oxysporum; microbial growth; 50 µg/mL).
The MIC80 of `C#Cc1ccc(C=NNC(=O)c2ccc(Br)c(O)c2)c(O)c1` is reported as > 32 µg/mL (Aspergillus fumigatus; microbial growth; 48 h, pH 6.5).
With `COC(=O)c1cc(-c2cccc(NC(=S)NC3CCCCC3)c2)on1` the MIC was > 64 µg/mL (Mycobacteroides abscessus; microbial growth, broth dilution; ATCC19977; 48 h).
With `CCOC(=O)COc1ccc2ccc3oc([N+](=O)[O-])cc3c2c1` the MIC90 was 0.25 µg/mL (≈ 0.793 µM) (Mycolicibacterium smegmatis; microbial growth, resazurin; MC^2155).
For `Cn1cc2c3c1C(=O)C(N)=CC3=NCC2`, the IC50 was 2370 nM (Babesia divergens; parasite growth, SYBR Green; 60 h, blood stage).
`N.N.[Cl][Pt][Cl]` gave an IC50 of 2870 nM (Raji; cell growth or viability, ATP luminescence; 72 h).
`CC(C)[C@@H]1NC(=O)[C@@H](CCCCN)NC(=O)[C@H](CCCN)NC(=O)[C@@H](CC(=O)O)NC(=O)[C@H](C)NC(=O)[C@H](Cc2c[nH]c3ccccc23)NC(=O)[C@@H](Cc2ccccc2)NC1=O` gave an IC90 of > 16 µg/mL (Balamuthia mandrillaris; parasite growth, ATP luminescence).
`C#Cc1cccc(C=NNC(=O)c2ccc(Br)cc2Br)c1O` gave an MIC80 of 1 µg/mL (≈ 2.37 µM) (Aspergillus fumigatus; microbial growth; 48 h, pH 6.5).
The inhibition of `O=C(NNc1ccc(Cl)c(Cl)c1)c1nnc(CC23CC4CC(CC(C4)C2)C3)o1` is reported as 40.9% (Fusarium oxysporum; microbial growth; 50 µg/mL).
With `O=c1ccc2nc3ccc(OCc4ccc([N+](=O)[O-])o4)cc3oc-2c1` the MIC was > 32 µg/mL (Acinetobacter baumannii; microbial growth; 24 h).
The IC90 of `CC(C)[C@@H]1NC(=O)[C@@H](Cc2ccccc2)NC(=O)[C@H](Cc2ccccc2)NC(=O)[C@@H]([C@H](C)O)NC(=O)[C@@H](CCCNC(=N)N)NC1=O` is reported as > 16 µg/mL (Balamuthia mandrillaris; parasite growth, ATP luminescence).
The IC90 of `C[C@@H]1[C@H](O)[C@@H](C)/C=C/C=C/C=C/C=C/C=C/C=C/C=C/[C@H](O[C@@H]2O[C@H](C)[C@@H](O)[C@H](N)[C@@H]2O)C[C@@H]2O[C@](O)(C[C@@H](O)C[C@@H](O)[C@H](O)CC[C@@H](O)C[C@@H](O)CC(=O)O[C@H]1C)C[C@H](O)[C@H]2C(=O)O` is reported as 0.36 µg/mL (≈ 0.39 µM) (Leishmania donovani; parasite growth; amastigote).
`C#Cc1ccc(O)c(C=NNC(=O)c2ccc(C3(C(F)(F)F)N=N3)cc2)c1` has an MIC80 of ≤ 0.25 µg/mL (Aspergillus fumigatus; microbial growth; 48 h, pH 6.5).
The MIC of `COC(=O)c1cc(-c2cccc(NC(=S)Nc3ccc(C#N)cc3)c2)on1` is reported as > 64 µg/mL (Acinetobacter baumannii; microbial growth, broth dilution; BAA1605).
The MIC of `Oc1c(Br)cc(Br)cc1-c1[nH]c(Br)c(Br)c1Br` is reported as 16 µM (Shigella sonnei; microbial growth; ATCC25931).
With `NCCCC[C@@H]1NC(=O)[C@@H](CCCN)NC(=O)[C@@H](Cc2ccccc2)NC(=O)[C@H](Cc2ccccc2)NC(=O)CNC1=O` the IC90 was > 16 µg/mL (Balamuthia mandrillaris; parasite growth, ATP luminescence).
`CCOC(=O)c1nnn(-c2cccc(NC(=O)Nc3ccc(Cl)c(Cl)c3)c2)c1C` gave an MIC of > 64 µg/mL (Mycobacteroides abscessus; microbial growth, broth dilution; ATCC19977; 48 h).
The IC50 of `C[C@@H](O)[C@@H]1NC(=O)[C@H](Cc2ccccc2)NC(=O)[C@@H](Cc2ccccc2)NC(=O)[C@H]([C@@H](C)O)NC(=O)[C@@H](CCCN)NC(=O)[C@H](CCCN)NC(=O)[C@@H](CCCCN)NC1=O` is reported as > 16 µg/mL (Balamuthia mandrillaris; parasite growth, ATP luminescence).
`COC(=O)c1cc(-c2cccc(NC(=O)Nc3cccc(Cl)c3Cl)c2)on1` has an MIC of > 64 µg/mL (Mycobacteroides abscessus; microbial growth, broth dilution; ATCC19977; 48 h).
The inhibition of `O=C(NNc1ccc(Cl)cc1)c1nnc(C23CC4CC(CC(C4)C2)C3)o1` is reported as 100% (Sclerotinia sclerotiorum; microbial growth; 50 µg/mL).
For `NCCCC[C@H]1NC(=O)[C@H](CO)NC(=O)[C@H](Cc2ccccc2)NC(=O)[C@@H](Cc2ccccc2)NC(=O)[C@H](Cc2c[nH]c3ccccc23)NC(=O)[C@@H](CCCN)NC(=O)[C@H](CCCN)NC1=O`, the IC90 was > 16 µg/mL (Balamuthia mandrillaris; parasite growth, ATP luminescence).
For `CC(C)C[C@@H]1NC(=O)CNC(=O)[C@H]2CCCN2C(=O)[C@@H](CC(C)C)NC(=O)CNC(=O)[C@H](Cc2ccc(O)cc2)NC(=O)[C@@H](Cc2ccc(O)cc2)NC(=O)[C@@H](CCCCN)NC(=O)[C@H]([C@@H](C)O)NC(=O)[C@@H]2CCCN2C(=O)[C@H](CC(C)C)NC1=O`, the solubility was 631 µM (≈ 759 µg/mL) (aqueous buffer; 18 h, pH 7.4).

Excerpt of the above:
`C[N+]1=C2C=C(NCCc3ccc(O)cc3)C(=O)c3[nH]cc(c32)CC1` has an IC50 of 3.4 nM (Babesia divergens; parasite growth, SYBR Green; 60 h, blood stage).
With `O=c1ccc2nc3ccc(OCc4ccc([N+](=O)[O-])o4)cc3oc-2c1` the MIC was > 32 µg/mL (Acinetobacter baumannii; microbial growth; 24 h).
The inhibition of `O=C(NNc1ccc(Cl)c(Cl)c1)c1nnc(CC23CC4CC(CC(C4)C2)C3)o1` is reported as 40.9% (Fusarium oxysporum; microbial growth; 50 µg/mL).
The MFC of `CC(=O)N1CCN(c2ccc(OCC3COC(Cn4ccnc4)(c4ccc(Cl)cc4Cl)O3)cc2)CC1` (stereo not drawn) is reported as > 64 µM (Candida albicans; microbial killing, broth dilution; SP3902; 48 h).
`COC(=O)c1cc(-c2cccc(NC(=S)Nc3ccccc3)c2)on1` has an MIC of > 64 µg/mL (Acinetobacter baumannii; microbial growth, broth dilution; BAA1605).
The IC90 of `CC(C)[C@@H]1NC(=O)[C@@H](Cc2ccccc2)NC(=O)[C@H](Cc2ccccc2)NC(=O)[C@@H]([C@H](C)O)NC(=O)[C@@H](CCCNC(=N)N)NC1=O` is reported as > 16 µg/mL (Balamuthia mandrillaris; parasite growth, ATP luminescence).
The IC50 of `C[C@@H](O)[C@@H]1NC(=O)[C@H](Cc2ccccc2)NC(=O)[C@@H](Cc2ccccc2)NC(=O)[C@H]([C@@H](C)O)NC(=O)[C@@H](CCCN)NC(=O)[C@H](CCCNC(=N)N)NC(=O)[C@@H](CCCN)NC1=O` is reported as > 16 µg/mL (Balamuthia mandrillaris; parasite growth, ATP luminescence).
